Experimental data from different studies.
Lines come from different studies, so protocols differ.

Structure (SMILES)	assay	test system	setting	measurement	value
Cc1c(Cl)c(C)[n+]([O-])c(Cl)c1-c1noc(-c2cc(O)c(O)c([N+](=O)[O-])c2)n1	refers to: Belching	healthy Caucasian subjects	oral, 50 mg, 20 days	adverse drug reaction incidence	0%
CNC(=O)c1ccc(-c2cnc3ncc(Cc4ccc5ncccc5c4)n3n2)cc1F	phase 1 clinical trial, refers to: blood alkaline phosphatase increased	other expansion cohort	oral, 600 mg twice daily, grade 3 or 4	adverse event incidence	0%
Cc1cc(Nc2ccc(S(F)(F)(F)(F)F)cc2)n2nc(C(C)(F)F)nc2n1		Plasmodium vivax malaria patients	oral, 400 mg	adverse event Thrombocytopenia	20%
CC(C)n1c(Nc2cccnc2)nc2cnc(Nc3ccc(N4CCN(C)CC4)cc3)nc21	refers to: Toothache	healthy male subjects	oral, 100 mg, together with: itraconazole	adverse event incidence	0%
NCCONC(=O)[C@@H]1CC[C@@H]2CN1C(=O)N2OS(=O)(=O)O	refers to: leading to temporary interruption	healthy Chinese men	intravenous, 2 g, treatment-related	adverse event incidence	0%
FC(F)(F)c1ccc(CNc2ccc(Cc3c[nH]c4ncc(Cl)cc34)cn2)cn1		patients with advanced solid tumours	oral, dose not given, phase Ib, all relationships	adverse events, any	100%
Cc1c(C(=O)O)ccc2c3n(nc12)[C@@H]1[C@H](C3)N(CC2CC2)[C@@]2(C(=O)Nc3cc(Cl)ccc32)[C@H]1c1cccc(Cl)c1F	phase Ia trial, refers to: Constipation	cancer patients	oral, dose not given, all patients all grades	adverse event incidence	18.5%
O=C1CCc2ccc(OCCCCN3CCN(c4cccc(Cl)c4Cl)CC3)cc2N1	refers to: Tremor	genotyped patients, CYP2D6 normal metabolizers	dose not given, long-acting oral or depot	adverse event incidence	5.8%

A few entries again:
Structure (SMILES)	assay	test system	setting	measurement	value
FC(F)(F)c1ccc(CNc2ccc(Cc3c[nH]c4ncc(Cl)cc34)cn2)cn1		patients with advanced solid tumours	oral, dose not given, phase Ib, all relationships	adverse events, any	100%
